Measured values from different studies.
A part holds a random share of what one study measured. Substitutions count along the parent as printed.

Sample 1
Target: CCND1, cyclin fold, Cln2 fusion (human)
Method: yeast growth competition, sequencing
Medium: yeast
Notes: weak parent motif
Reference: not given
Direction: higher = stronger binding
Starting sequence: SLBP docking peptide (human); ARYKRKLLINDFG
Variant | normalised enrichment score
ARLKRKLLINDFG [Y3L] | 0.711
ARYKRKLLINDFK [G13K] | 0.136
ARYKRKLLINLFG [D11L] | 0.946
ARYKHKLLINDFG [R5H] | 0.125
WRYKRKLLINDFG [A1W] | -0.108
ARYKRALLINDFG [K6A] | 0.286
ARYKRKHLINDFG [L7H] | -0.697
ARIKRKLLINDFG [Y3I] | 0.152
ARYDRKLLINDFG [K4D] | 0.0461
ARYKRKLDINDFG [L8D] | -0.255
AQYKRKLLINDFG [R2Q] | 0.996
ARPKRKLLINDFG [Y3P] | -0.354
ARYKRKLLIYDFG [N10Y] | 0.298
ARGKRKLLINDFG [Y3G] | -0.196
ARYKRKLNINDFG [L8N] | -0.0175
ARYKPKLLINDFG [R5P] | 0.362
ARYKRKLLINRFG [D11R] | 0.168
ARYKRKLLHNDFG [I9H] | 0.165
ARYKRLLLINDFG [K6L] | 0.433
ARYKRRLLINDFG [K6R] | -0.392
ARYKRTLLINDFG [K6T] | -0.0191
ARYKRKLLICDFG [N10C] | 0.0379
ARYKRKLCINDFG [L8C] | -0.452
ARYWRKLLINDFG [K4W] | 0.881
ARYKRKPLINDFG [L7P] | 0.0807

Sample 2
Target: RNA binding protein fox-1 homolog 2, RRM domain, GST-SBP tag (RBFOX2, Homo sapiens, UniProt O43251-10, residues 100-194)
Method: RNA Bind-n-Seq
Molecule type: RNA
Medium: in vitro
Concentration: 365 nM
Notes: natural RNA segment, single round, ends assumed
Reference: no-protein control
Direction: higher = stronger binding
Residues (chain): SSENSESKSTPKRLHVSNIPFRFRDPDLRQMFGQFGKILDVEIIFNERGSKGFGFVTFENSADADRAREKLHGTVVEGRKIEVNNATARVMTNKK
Strand | RBNS enrichment (R)
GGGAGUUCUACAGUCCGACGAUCGGGUGGACAGUCCUAAUGGGGAUCUCCAGCUCCUUCCUGUGGGCUGCCACAGACAGCUACCCCCAGAAGGGUCAAUGUUGGGAGUGGUUGUGGCUCUGAGCUGCUCUACAUGGAAUUCUCGGGUGCCAA | 0.73
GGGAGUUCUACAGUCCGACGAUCAUCUCUGGAUGUGCACUGUCAGUCAUGUGUCCACCAGGCCUCGAAUAUCAUAUGGGAAAUGUCAUAGUUAAAAACGUACAGCCAGGCCCGUGUGCUGUUAAUAGUGUGAAUGGAAUUCUCGGGUGCCAA | 0.412
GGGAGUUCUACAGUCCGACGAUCAACCUGUGUUGUCCUAGACCCUGUCGGGGCAGUCAGGGGACACUAGAGAUUUGAUCUCAUGCGAGUCAUCAAUAGGACAAAAAAGUUGUGGUUUGGGGAGGUCUGUUUGUUGGAAUUCUCGGGUGCCAA | 0.797
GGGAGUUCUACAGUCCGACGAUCUACAACAGUCAAAAAGGAAACACACGAAAAUCACUUUUCUGCAACUGAUGAACUAUAUAGACUGGACUCUUAACCUCUUAGUGCCUCAGUUUUUCCUUCGGGGUAUACUAUGGAAUUCUCGGGUGCCAA | 0.204
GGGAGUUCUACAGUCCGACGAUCUGGAAUUAUUCAUCCCCUUUGAAAGAUGAGAAGGUUGAGAUGCAAAGAGUCUACCUUUCCAAGUUCUCACUGCUGGAAAGAGCUAGAAGCACAGUUCAAAGUUCUGGCUUUGGAAUUCUCGGGUGCCAA | 0.606
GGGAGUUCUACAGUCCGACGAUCCAGGAUCCCAGACGUUCAGAACCAGAUUCUCAUUGCUUUGUAUCUUUCACGUUGUUUUCGCUGCUAUUGGAGGGUCAGUUUUGUUUUGUUUUGUUUUACAAUGUCAGACUUGGAAUUCUCGGGUGCCAA | 0.497
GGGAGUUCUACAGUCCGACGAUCGCCCGGGGAGUAGCCCUGGGGGAGAGAGGGCAGUGUUGCCUAUCCCAGAGGUCCCAGCAGUCACACUGCUCUGCAGGCCGGGCUCUCUUUAUAGCCAGAGAAAUCACCUUUGGAAUUCUCGGGUGCCAA | 0.14
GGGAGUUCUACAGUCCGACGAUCAGGAGACUACACUUUAAAUCGACCUGACAGAUUUUGAGAAAAACAGCAGCUUCGCACAAUACCAAAGUUUUAAAGUUGGUGAUAAAAAGUCUUUUUAUGAACUAAAUAUUUGGAAUUCUCGGGUGCCAA | 0.384
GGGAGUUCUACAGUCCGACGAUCCCUGUUUCGCUGUGGGAACAGGAGAGAAGGUGAUGAACAAACCACCAUCCGCUGCAUGGUCACAGUAGAGCCCCCGUGACUCGCCUGUCUUUGGGUCACCUGCAUUCCAUUGGAAUUCUCGGGUGCCAA | 9
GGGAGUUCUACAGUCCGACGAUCGAAUGAGGUAGGGAGCCUCUCUCCCCCAGUGGCCAUGUUUACAAAAGUGUGUUUUGUCUAUAAAGUGCAAGUGUUUUAAUGUUUAUGUAAAUUAUGCAGGUGAUAACAUGUGGAAUUCUCGGGUGCCAA | 1.08
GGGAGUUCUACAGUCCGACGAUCUAAUCCGCGCUGUUCUUUGCAGCAGUGCUUCCAAGCUUUUUUUGGUGAGCCGAAUGGGCAUGGCUGCGCUGGAUCCUGCGCCUCUGGACGUGCUAGCCAUUUCCAGUGUCUGGAAUUCUCGGGUGCCAA | 0.241
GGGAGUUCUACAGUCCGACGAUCGUGACAGCUGAGUGUGCUGUGUCUCACACUAUCACCCGUCAUCAGGAUGUCUCUCCUUCCUUACUGUGGCUUCUGCAUGCACUUACACUGUACUUGACGGCUGGCCUCCAUGGAAUUCUCGGGUGCCAA | 16.5

Sample 3
Target: Sal-like protein 4, full length isoform B (SALL4, Homo sapiens, UniProt Q9UJQ4-2, residues 1-616)
Method: universal PBM
Molecule type: double-stranded DNA, one strand shown
Medium: in vitro
Concentration: not given
Notes: 8-mer, flanks averaged, mean of replicates
Direction: higher = stronger binding
Construct (chain): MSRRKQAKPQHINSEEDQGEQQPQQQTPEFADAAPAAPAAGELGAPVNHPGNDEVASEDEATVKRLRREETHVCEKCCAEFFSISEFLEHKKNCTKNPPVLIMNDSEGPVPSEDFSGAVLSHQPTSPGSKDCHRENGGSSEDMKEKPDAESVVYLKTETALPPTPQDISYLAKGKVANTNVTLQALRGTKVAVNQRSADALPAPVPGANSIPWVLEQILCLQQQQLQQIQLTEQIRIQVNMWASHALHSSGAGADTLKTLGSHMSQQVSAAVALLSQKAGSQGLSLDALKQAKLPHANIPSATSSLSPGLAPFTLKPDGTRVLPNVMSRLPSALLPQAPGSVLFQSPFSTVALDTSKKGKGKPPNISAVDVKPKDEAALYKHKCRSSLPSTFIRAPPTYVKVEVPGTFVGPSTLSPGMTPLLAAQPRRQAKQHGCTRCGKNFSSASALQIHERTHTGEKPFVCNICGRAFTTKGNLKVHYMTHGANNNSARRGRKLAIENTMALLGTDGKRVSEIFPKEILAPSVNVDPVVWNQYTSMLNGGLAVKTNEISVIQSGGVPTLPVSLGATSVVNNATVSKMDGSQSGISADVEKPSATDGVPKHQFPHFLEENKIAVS
Strand | E-score
ACCCTCCT | -0.21
AATTTTTC | 0.285
GAAGTTGC | -0.241
TAACTGAA | 0.106
CCCGACGG | -0.187
ACCTCAGC | -0.071
CGTGACAG | -0.241
ACCGCCCT | -0.106
GAGGCGAC | -0.213
AAATGACG | 0.174
ATAGCTAG | 0.0398
AACTCCAT | 0.121
CGACTACA | 0.0876
ATTAAAGC | 0.22
GACCGAAA | -0.00839
ACGTGTTG | 0.157
GACCGTTA | 0.0569
AAGAGACA | 0.101
TGGCCACA | -0.164
TATAGTCA | 0.269
ATCCCTCC | -0.00237

Sample 4
Target: DDIT3, bZIP domain (human)
Method: DHFR protein complementation
Medium: yeast
Notes: single substitutions, most at no-binding floor
Reference: wild-type JUN-FOS pair
Direction: higher = stronger binding
Starting sequence: JUN, bZIP domain (human); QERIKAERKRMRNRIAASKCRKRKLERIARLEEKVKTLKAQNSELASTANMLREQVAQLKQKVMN; partner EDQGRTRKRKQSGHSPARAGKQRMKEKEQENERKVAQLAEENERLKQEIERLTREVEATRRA
Variant | binding fitness [natural log]
Q58H | 0.0209
A46M | 0.13
E54R | -0.088
A49F | -0.577
E44C | -0.0931
Q55L | 0.0484
I28G | -7.59e-05
L38G | -1.18
I28W | 0.00443
K34Q | 0.113
K39L | 0.0324
L38T | -1.03
L59P | -0.781
R30A | 0.265
Q41G | -1.18
E54V | -0.2
A57M | 0.000361
A46Y | -0.163
V35A | 0.0171
V56L | 0.158
A29P | -0.9
L31E | -0.82

Mixed results
Substance | target | test | test system | setting | scale | measurement | result
PhoQ, residues 284 288 289 292 302 303 TTSMTC | PhoP, residues 12 14 15 18 19 AWHSL (Escherichia coli, UniProt P23836) | Sort-seq, item: YFP reporter | E. coli | PhoQ-PhoP variant library, added: 10 µM Mg2+ | reference: high Mg2+ state, higher = stronger signaling | fold induction | 5.8

Excerpt of the above (sample 3):
Strand | E-score
GAGGCGAC | -0.213
AAATGACG | 0.174
ATAGCTAG | 0.0398
AACTCCAT | 0.121
